Experimental data from different studies.
A part holds a random share of what one study measured. Values joined by “and” are separate records of one study, mostly repeats; a detail may differ.

Block 1
SMILES: Cc1ncsc1-c1ccc(C(CO)NC(=O)C2CC(O)CN2C(=O)C(C(C)C)n2cc(-c3ccc(COc4c(-c5c(C)c(F)cc6[nH]ncc56)c(C5CC5)cc5c(N6CC7CC6CN7)nc(OC6CCOCC6)nc45)cc3)nn2)cc1 (stereo not shown)
Time: 6 days
It gave 20.2% and 25.1% and 26.1% and 36.3% for viability (ASPC1; cell growth or viability, ATP luminescence; 0.1 µM).
For BXPC-3; cell growth or viability, ATP luminescence; 3 nM: viability read 101% and 88.5% and 103% and 107%.
It gave 45.4% and 61.8% and 40.4% and 33.6% for viability (LCLC-97TM1; cell growth or viability, ATP luminescence; 1 µM).
The viability was 94.1% and 105% and 93.3% (AsPC-1; CellTiter-Glo; 300 pM; reference: DMSO).
The viability was 87.7% and 84% and 96.2% and 128% (HT-29; cell growth or viability, ATP luminescence; 0.3 µM).
It gave 94.8% and 107% and 105% and 113% for viability (LCLC-97TM1; cell growth or viability, ATP luminescence; 3 nM).
GP5d; cell growth or viability, ATP luminescence; 0.1 µM — viability: 39.1% and 26.6% and 46.3% and 25.5%.
For PSN1; cell growth or viability, ATP luminescence; 3 nM: viability read 92.4% and 124% and 84.6% and 81.4%.
For PK-59; cell growth or viability, ATP luminescence; 0.3 µM: viability read 5.14% and 7.08% and 4.81% and 7%.
PaTu 8902; cell growth or viability, ATP luminescence; 3 nM — viability: 108% and 85.9% and 103% and 105%.

Block 2
Compound: CCN1/C(=C/C=C2\CCCC(/C=C/C3=[N+](CC)c4ccccc4C3(C)C)=C2NCCCCCCCCN2CCC(Nc3nc4ccccc4n3Cc3ccc(F)cc3)CC2)C(C)(C)c2ccccc21
Cell line: U-87 MG
Tested at: concentration not given
Reference: DMSO
It gave -1.61 for “log2 fold change” (refers to: MYRF mRNA).
It gave -1.89 for “log2 fold change” (refers to: BDKRB2 mRNA).
For refers to: SAT1 mRNA: “log2 fold change” read 2.
It gave 1.92 for “log2 fold change” (refers to: SPATA17 mRNA).
refers to: NRIP3 mRNA — “log2 fold change”: 0.971.
For refers to: SESN2 mRNA: “log2 fold change” read 1.6.
The “log2 fold change” was 0.942 (refers to: CGRRF1 mRNA).
The “log2 fold change” was -1.4 (refers to: SHMT1 mRNA).
For refers to: PI4K2A mRNA: “log2 fold change” read 0.902.
The “log2 fold change” was 2.7 (refers to: EID3 mRNA).
For refers to: MAD2L1 mRNA: “log2 fold change” read -1.81.
For refers to: MYPN mRNA: “log2 fold change” read -2.45.
For refers to: DAG1: “log2 fold change” read -0.978.
It gave 0.818 for “log2 fold change” (refers to: KRBOX4 mRNA).
For refers to: BNC2 mRNA: “log2 fold change” read -1.6.
The “log2 fold change” was 1.46 (refers to: RIPK2 mRNA).

Block 3
Structure (SMILES): Cc1ccc(O)c(C)c1-c1cnc2[nH]c(-c3cnc(N4CCC5(CC4)CC(N4CCN(c6ccc(N[C@H]7CCC(=O)NC7=O)cc6F)CC4)CO5)nc3)cc2c1C#N (single isomer, unassigned)
Matrix: plasma
Route: intravenous
Dose: 1 mg/kg
The clearance was 17.6 mL/min/kg (male Sprague-Dawley rat).
It gave 19.3 mL/min/kg for clearance (male cynomolgus monkey).
male beagle dog — clearance: 7.2 mL/min/kg.

Block 4
Compound: C[C@@H]1CN(c2ccc(-c3cc(C(=O)NCCOCCOCCOCCOCCNC(=O)Cn4cc(-c5[nH]cc(C(=O)N[C@@H](CC(N)=O)c6ccc(F)c(Cl)c6)c5-c5ccc(Cl)cc5F)cn4)ccc3F)cc2NC(=O)c2c[nH]c(=O)cc2C(F)(F)F)C[C@H](C)N1C
Observed: thermal unfolding
Technique: differential scanning fluorimetry
Tested at: 5.5 µM
Direction: higher = more unfolded
WDR5: WD repeat-containing protein 5 (WDR5, Homo sapiens, UniProt P61964)
DCAF1: DDB1- and CUL4-associated factor 1 (DCAF1, Homo sapiens, UniProt Q9Y4B6)
Sequence of UniProt Q9Y4B6 (whole entry, looked up): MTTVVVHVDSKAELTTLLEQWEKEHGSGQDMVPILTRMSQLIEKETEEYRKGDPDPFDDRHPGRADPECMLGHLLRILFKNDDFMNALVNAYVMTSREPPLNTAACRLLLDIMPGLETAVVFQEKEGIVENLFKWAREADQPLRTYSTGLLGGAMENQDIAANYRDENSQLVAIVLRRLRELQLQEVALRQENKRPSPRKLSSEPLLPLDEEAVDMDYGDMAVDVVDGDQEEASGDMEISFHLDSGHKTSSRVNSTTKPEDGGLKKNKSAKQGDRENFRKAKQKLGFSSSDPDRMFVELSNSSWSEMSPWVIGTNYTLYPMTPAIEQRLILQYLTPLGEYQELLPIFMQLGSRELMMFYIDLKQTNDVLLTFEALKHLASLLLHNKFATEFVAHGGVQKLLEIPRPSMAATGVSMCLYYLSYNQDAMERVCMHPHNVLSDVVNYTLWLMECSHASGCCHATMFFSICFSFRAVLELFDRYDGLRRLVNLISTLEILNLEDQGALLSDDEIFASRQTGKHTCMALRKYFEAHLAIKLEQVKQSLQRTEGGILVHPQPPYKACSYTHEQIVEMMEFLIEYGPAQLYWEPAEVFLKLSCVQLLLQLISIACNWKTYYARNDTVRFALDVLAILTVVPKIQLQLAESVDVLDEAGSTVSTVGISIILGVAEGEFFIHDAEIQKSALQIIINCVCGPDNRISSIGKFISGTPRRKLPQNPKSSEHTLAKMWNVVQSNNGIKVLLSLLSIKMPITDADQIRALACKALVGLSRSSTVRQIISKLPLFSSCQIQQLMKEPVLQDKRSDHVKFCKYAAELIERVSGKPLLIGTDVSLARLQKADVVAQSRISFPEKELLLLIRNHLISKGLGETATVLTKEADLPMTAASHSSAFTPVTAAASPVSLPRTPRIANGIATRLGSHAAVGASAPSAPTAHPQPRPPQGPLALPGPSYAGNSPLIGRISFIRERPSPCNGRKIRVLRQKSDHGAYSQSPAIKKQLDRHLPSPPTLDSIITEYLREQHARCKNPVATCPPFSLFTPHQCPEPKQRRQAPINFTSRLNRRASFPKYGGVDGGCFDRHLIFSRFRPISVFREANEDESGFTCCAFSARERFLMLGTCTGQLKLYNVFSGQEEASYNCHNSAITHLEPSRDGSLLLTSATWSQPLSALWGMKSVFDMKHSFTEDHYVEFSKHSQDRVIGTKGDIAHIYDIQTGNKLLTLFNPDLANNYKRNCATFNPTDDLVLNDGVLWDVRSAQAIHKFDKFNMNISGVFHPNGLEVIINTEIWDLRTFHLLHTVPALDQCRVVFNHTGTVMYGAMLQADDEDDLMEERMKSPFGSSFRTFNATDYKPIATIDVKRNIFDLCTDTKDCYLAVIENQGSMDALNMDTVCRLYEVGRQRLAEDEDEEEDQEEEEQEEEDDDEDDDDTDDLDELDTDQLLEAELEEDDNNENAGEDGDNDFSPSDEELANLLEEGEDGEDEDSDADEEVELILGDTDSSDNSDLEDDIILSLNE
The “SYPRO Orange fluorescence” was 28600 a.u. (WDR5; 81.61 °C).
The “SYPRO Orange fluorescence” was 8330 a.u. (DCAF1; 30.4 °C).
DCAF1; 51.8 °C — “SYPRO Orange fluorescence”: 15600 a.u.
WDR5; 53.41 °C — “SYPRO Orange fluorescence”: 14300 a.u.
DCAF1; 49.8 °C — “SYPRO Orange fluorescence”: 14400 a.u.
It gave 14200 a.u. for “SYPRO Orange fluorescence” (WDR5; 41.4 °C).
WDR5; 55.81 °C — “SYPRO Orange fluorescence”: 13100 a.u.
It gave 23300 a.u. for “SYPRO Orange fluorescence” (WDR5; 80.01 °C).
The “SYPRO Orange fluorescence” was 48900 a.u. (DCAF1; 75.41 °C).
DCAF1; 69.81 °C — “SYPRO Orange fluorescence”: 54700 a.u.
For WDR5; 94.21 °C: “SYPRO Orange fluorescence” read 38900 a.u.
